Experimental data pooled from the literature.
Protocols differ between the studies behind these lines. Numbers after ± are the reported error.
uncharacterized protein: uncharacterized protein (Candidatus Liberibacter solanacearum, UniProt A0A094YYW1)
Chain of UniProt O82882 (whole entry, looked up): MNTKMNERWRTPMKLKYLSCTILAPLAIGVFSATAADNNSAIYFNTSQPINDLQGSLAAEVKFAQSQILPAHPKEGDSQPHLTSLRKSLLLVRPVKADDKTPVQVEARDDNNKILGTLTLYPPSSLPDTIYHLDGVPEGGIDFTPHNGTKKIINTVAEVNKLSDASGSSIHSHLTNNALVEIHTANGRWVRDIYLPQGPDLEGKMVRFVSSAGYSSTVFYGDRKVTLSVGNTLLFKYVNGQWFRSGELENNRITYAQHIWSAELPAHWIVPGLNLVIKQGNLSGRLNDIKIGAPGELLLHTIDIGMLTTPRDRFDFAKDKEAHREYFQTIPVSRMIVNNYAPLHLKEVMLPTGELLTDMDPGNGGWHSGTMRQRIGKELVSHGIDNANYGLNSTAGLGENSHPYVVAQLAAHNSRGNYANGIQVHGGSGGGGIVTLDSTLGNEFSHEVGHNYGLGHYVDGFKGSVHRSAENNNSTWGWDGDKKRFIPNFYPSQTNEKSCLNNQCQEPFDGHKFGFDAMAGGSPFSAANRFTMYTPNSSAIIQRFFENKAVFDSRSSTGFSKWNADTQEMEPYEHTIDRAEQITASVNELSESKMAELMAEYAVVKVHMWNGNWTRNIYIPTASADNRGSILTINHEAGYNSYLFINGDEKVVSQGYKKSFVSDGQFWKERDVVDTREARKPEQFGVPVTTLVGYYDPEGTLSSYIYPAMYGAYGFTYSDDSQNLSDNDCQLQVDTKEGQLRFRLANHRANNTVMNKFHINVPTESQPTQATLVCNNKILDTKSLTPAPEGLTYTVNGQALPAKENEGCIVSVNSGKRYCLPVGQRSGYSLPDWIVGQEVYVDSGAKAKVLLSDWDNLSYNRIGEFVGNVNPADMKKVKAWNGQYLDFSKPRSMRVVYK

SMILES | target or system | test | system | conditions | how to read | quantity | value
N=C(N)NCCC[C@H](NC(=O)[C@@H](N)CO)C(=O)N[C@@H](Cc1ccc(O)cc1)C(=O)N[C@@H](Cc1ccc(O)cc1)C(=O)N1CCC[C@H]1C(=O)N[C@@H](Cc1ccccc1)C(=O)N[C@@H](Cc1ccccc1)C(=O)NCC(=O)N[C@@H](CC(=O)O)C(=O)N[C@@H](CO)C(=O)O | Marburg virus | pseudovirus infection | – | pseudotyped virus | – | IC50 | > 80 µM
O=c1c(O)c(-c2cc(O)c(O)c(O)c2)oc2cc(O)cc(O)c12 | SARS-CoV-2 | cytopathic effect | Vero E6 | 10 µM | – | inhibition | 1.9%
COc1cc([N+](=O)[O-])cc(/C=N/NC(=O)[C@H]2COc3ccccc3O2)c1O | uncharacterized protein | – | – | – | – | kon | 26.9 M⁻¹ s⁻¹
CC(C)[C@H](NC(=O)[C@H](Cc1ccccc1)NC(=O)[C@H](Cc1ccccc1)NC(=O)[C@H](CC(=O)O)NC(=O)[C@H](CC(=O)O)NC(=O)CNC(=O)[C@H](CCCCN)NC(=O)[C@H](CCCCN)NC(=O)[C@@H](N)Cc1c[nH]cn1)C(=O)N[C@@H](Cc1ccc(O)cc1)C(=O)N[C@@H](C)C(=O)N[C@@H](CC(=O)O)C(=O)N[C@@H](Cc1ccc(O)cc1)C(=O)O | Marburg virus | pseudovirus infection | – | pseudotyped virus | – | IC50 | 58.7 µM
CC(=O)N[C@H]1[C@@H](OC[C@H](NC(=O)[C@H](C)NC(=O)[C@H](C)N)C(=O)N[C@H](C(=O)N[C@H](C(=O)N[C@H](C(=O)N2CCC[C@H]2C(=O)N[C@@H](C)C(=O)N2CCC[C@H]2C(=O)N[C@@H](C)C(N)=O)[C@@H](C)O[C@H]2O[C@H](CO)[C@H](O)[C@H](O[C@@H]3O[C@H](CO)[C@H](O)[C@H](O)[C@H]3O)[C@H]2NC(C)=O)[C@@H](C)O[C@H]2O[C@H](CO)[C@H](O)[C@H](O[C@@H]3O[C@H](CO)[C@H](O)[C@H](O)[C@H]3O)[C@H]2NC(C)=O)[C@@H](C)O[C@H]2O[C@H](CO)[C@H](O)[C@H](O[C@@H]3O[C@H](CO)[C@H](O)[C@H](O)[C@H]3O)[C@H]2NC(C)=O)O[C@H](CO)[C@H](O)[C@@H]1O[C@@H]1O[C@H](CO)[C@H](O)[C@H](O)[C@H]1O | Metalloprotease StcE (stcE, Escherichia coli O157:H7, UniProt O82882) | binding | Escherichia coli, EHEC | – | – | Kd | 0.000268 ± 3e-06 µM
CCN1/C(=C/C=C2\CCCC(/C=C/C3=[N+](CC)c4ccccc4C3(C)C)=C2NCCCCCCCCN2CCC(Nc3nc4ccccc4n3Cc3ccc(F)cc3)CC2)C(C)(C)c2ccccc21 | U-87 MG | measured: MARVELD1 mRNA | – | concentration not given | reference: DMSO | log2 fold change | -1.02
COc1ccc(/C=N/NC(=O)C(C)(C)Oc2ccc(Cl)cc2)c(C(=O)O)c1OC | uncharacterized protein | – | – | – | – | kon | 106 M⁻¹ s⁻¹
COc1cc(C2C3C4=[N+](CCc5cc(O)c(OC)cc54)C(c4c3ccc(OC)c4OC)C2C(=O)[O-])ccc1O (single isomer, unassigned; (+)) | Spike glycoprotein (Severe acute respiratory syndrome coronavirus 2, UniProt P0DTC2) | binding | – | – | – | Kd | 22.2 µM

Excerpt of the above:
SMILES | target or system | test | system | conditions | how to read | quantity | value
CC(C)[C@H](NC(=O)[C@H](Cc1ccccc1)NC(=O)[C@H](Cc1ccccc1)NC(=O)[C@H](CC(=O)O)NC(=O)[C@H](CC(=O)O)NC(=O)CNC(=O)[C@H](CCCCN)NC(=O)[C@H](CCCCN)NC(=O)[C@@H](N)Cc1c[nH]cn1)C(=O)N[C@@H](Cc1ccc(O)cc1)C(=O)N[C@@H](C)C(=O)N[C@@H](CC(=O)O)C(=O)N[C@@H](Cc1ccc(O)cc1)C(=O)O | Marburg virus | pseudovirus infection | – | pseudotyped virus | – | IC50 | 58.7 µM
